Results pooled from the literature.
Numbered parts are unrelated; each lists some results of a single study. Changes are numbered by the printed parent chain.

Study 1 — method: Spec-seq; molecule type: double-stranded DNA, one strand shown; medium: in vitro; tested at: not given; notes: whole probe, mean of replicates; reference: not given; reading: lower = stronger binding; all sequences stand within: GAGTCGTCTCGTCAGCAC … CCGTAGAGCACTCAGGTC
Target: POU, POU domain (Salpingoeca helianthica)
Target sequence (chain): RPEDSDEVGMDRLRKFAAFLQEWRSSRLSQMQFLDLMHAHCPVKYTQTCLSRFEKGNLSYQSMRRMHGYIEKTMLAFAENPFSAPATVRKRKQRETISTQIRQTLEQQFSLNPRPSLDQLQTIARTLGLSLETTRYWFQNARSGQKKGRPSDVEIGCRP
| Sequence | relative binding energy [ln ratio] |
| --- | --- |
| TGATTAAT | -0.775 |
| ATGACGAT | 1.5 |
| ATTGGGAT | 1.32 |
| ATGCTGCG | 1.22 |
| ATGCTCAG | 1.2 |
| ACCGTAAT | 0.673 |
| ATGCATTG | 1.43 |
| TCGCTAAT | 0.581 |
| ATGCAGCT | 1.28 |
| ATAATGAT | -0.139 |
| ATGCATAC | 0.717 |
| ATCGGCAT | 1.27 |
| GCTTTAAT | 0.247 |
| ATGCTACG | 1.28 |
| ATGCTTCT | 1.16 |
| ATGCTACT | 1.22 |
| ATACGTAT | 1.2 |
| TATGTAAT | 0.509 |
| ATGCGAGC | 1.28 |

Study 2 — method: RNA Bind-n-Seq; molecule type: RNA; medium: in vitro; tested at: 100 nM; reference: input RNA pool; reading: higher = stronger binding
Target: RING finger protein unkempt homolog, zinc fingers 1-6, SBP tag (UNK, Homo sapiens, UniProt Q9C0B0, residues 30-357)
UniProt Q9C0B0, sequence (30-357, looked up): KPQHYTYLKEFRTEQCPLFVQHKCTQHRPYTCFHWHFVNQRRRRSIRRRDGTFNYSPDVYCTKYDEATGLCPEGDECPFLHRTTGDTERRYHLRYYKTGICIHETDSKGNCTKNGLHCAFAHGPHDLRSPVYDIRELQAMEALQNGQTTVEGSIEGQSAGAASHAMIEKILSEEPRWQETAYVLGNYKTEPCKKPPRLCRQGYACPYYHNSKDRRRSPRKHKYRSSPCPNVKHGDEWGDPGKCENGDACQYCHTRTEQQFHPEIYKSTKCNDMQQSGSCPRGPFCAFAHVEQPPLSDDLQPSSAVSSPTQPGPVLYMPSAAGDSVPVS
Notes: RNA with constant flanks, vertebrate orthologous sites, ends assumed
All sequences stand within: GGGAGUUCUACAGUCCGACGAUC … CAACAGAGGAUUGAGCAUCA
| Sequence | bound/input enrichment [ratio] |
| --- | --- |
| CCUCCAGUGCUUGUUUUCAGGUUGUGGCUAAUUGCAUCUUCCACUUUAAGUUCUUUCCUGUGCCCCCUCCAUAAUCCCUCUCUUAACUCAGACAGGUGUGGAGUAUUUUACUCAGUCAUU | 0.863 |
| GGGACGCUUUGACAUAAAGCUCACCGUGUCGUGACCUGAGCUACAGCGAGCACUCAAUUUGAAAACGAAUACAACUUAGAGAAAACCGUUCAGAUAAAAACCACCACUAGUCUUUGAACA | 0.19 |
| GGACUAAUUUGAUUCUCUGUCUCUUUUUUCCCCAUCCUAAUUUCAAGAGCCCUUUUCUUUUAGGCGUAUGUAGUAAUAGCUGAAAGAUUUAAUUUGGGCAACUUUGAUUCUUAAAAAAAG | 0.238 |
| UGUGAGGGUCUACUGACCACUCACUGUUAAAGUCUGGUAUCUGUAAACACUUUCUGUUCUUAGUCUUUUACUUGUAUAAUUGAUGUUCUUUAAAAUUGUCAAUGUAUAACAGGGCUUAUG | 1.07 |
| GGCCUCCUGAACUUCUAGCUUUCAAGCUGUGGCUGUUUUAGAUACUGGUUUUAUUUUCUUUGCAGUUUUUCCCUGUUGCCCACAUUCUCUCCCCCUCUUCCCAAGGUUUGACUCAUGGAU | 1.17 |
| GUCCCUCAGCGACAGCAUGCCUUCGGUUGCAGAUUCCCACUCGAGCCACUUCUCCGAAUUCAGUUGUUGUGACCUGGAGAGCGUGAAGACCUCGUGCAGCCACGGCUCCGGGGACUGCCA | 0.311 |
| UGUAGAGAAAAAUUUUUCAUUGACCCUCCCCCACAUUGUGUAAUUCCAUAGAAAUUUAUUUGGAAUCUUAAUUUUUCUAAUUCAUACUUGCUGCAAUAGUCAUUUUAAGGCCAUAAUGAA | 0.47 |
| GAAUAGAACUCUUGCAUUCUUAGAUGUUAUAAAAAUAUAAAUCUGAAUUGUAAGAGUUAGCAUAGGUUUUUUUUUUUAAGCACUUGUUUUGAGUACAAGUCAUUUCGGAAAUUUUAUAUA | 1.24 |
| GCCAUGUAGAGUAAGGUCCUGUUCUCCUUAGGAUGUUUUUUCCUUGUGUGUUUUUUUUUUCUAGGGGUGGGGGUGGGAUUAUGGCACACACCGACUCUGAGGCGAGCACUGCAGGGUCAU | 0.848 |
| GCAGCACAUAAAUGACCCAAGGCAGCGACUUAAGCUUUAUGGAGAGUGCAGUCUUACAGGCACCUGCUUCCGUUUAAACUUCGAGAUUGGAUUGUUAAGAUACAUAUCUUUCAGUAAAGG | 0.323 |
| AUUUGAAAUGUAGUUAGUUAUAUUUAAUUAUCUCAUUCCUGAGUUCCUUUUUCAUUAAAGUAGCUUUCAUUUCUUUUAUUGCAGUUAUUAAAAUAUGAAUAAAUAGAAGGUUUGUGCCCG | 0.574 |

Study 3 — method: DHFR PCA, deep sequencing; medium: yeast; together with: (+)-ABA 0.11 µM; reference: wild-type fitted maximum; reading: higher = stronger binding
Target: ABI1, truncated, D143A, DHFR fusion (Arabidopsis thaliana)
Notes: methotrexate growth selection, single substitutions
Parent: PYL1, truncated, DHFR fusion (Arabidopsis thaliana); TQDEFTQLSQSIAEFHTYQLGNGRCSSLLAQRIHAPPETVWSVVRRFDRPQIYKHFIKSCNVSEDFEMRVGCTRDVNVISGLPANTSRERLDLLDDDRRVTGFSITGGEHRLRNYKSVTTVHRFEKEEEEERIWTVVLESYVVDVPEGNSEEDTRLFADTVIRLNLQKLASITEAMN
| Change | relative binding score [%] |
| --- | --- |
| Q51A | 31.6 |
| D3S | 25.6 |
| I57N | -8.32 |
| R45E | -4.41 |
| S42M | 6.3 |
| L82P | 9.22 |
| E89M | 9.93 |
| R132C | 45.6 |
| T154K | -8.94 |
| T135S | 19.6 |
| P146E | -4.32 |
| C72Q | 42.5 |
| N114M | -3.29 |
| V142D | 17.9 |
| A13W | 3.4 |
| D92K | -10.3 |

Study 4 — method: protein-binding microarray; molecule type: double-stranded DNA, one strand shown; medium: in vitro; tested at: 2200 nM top; notes: 60-bp whole probe; together with: salmon DNA 0.4 mg/ml; reference: random background probes; reading: higher = stronger binding; all sequences stand within: GCCTAGCAC … GTCTTGATTCGCTTGACGCTGCTG
Target: Interferon regulatory factor 7, full length, phosphomimetic (IRF7, Homo sapiens, UniProt Q92985, residues 1-503, S471D/S472D/S475D/S476D/S477D/S483D/S484D/S487D)
UniProt Q92985, sequence (whole entry, unmodified, looked up): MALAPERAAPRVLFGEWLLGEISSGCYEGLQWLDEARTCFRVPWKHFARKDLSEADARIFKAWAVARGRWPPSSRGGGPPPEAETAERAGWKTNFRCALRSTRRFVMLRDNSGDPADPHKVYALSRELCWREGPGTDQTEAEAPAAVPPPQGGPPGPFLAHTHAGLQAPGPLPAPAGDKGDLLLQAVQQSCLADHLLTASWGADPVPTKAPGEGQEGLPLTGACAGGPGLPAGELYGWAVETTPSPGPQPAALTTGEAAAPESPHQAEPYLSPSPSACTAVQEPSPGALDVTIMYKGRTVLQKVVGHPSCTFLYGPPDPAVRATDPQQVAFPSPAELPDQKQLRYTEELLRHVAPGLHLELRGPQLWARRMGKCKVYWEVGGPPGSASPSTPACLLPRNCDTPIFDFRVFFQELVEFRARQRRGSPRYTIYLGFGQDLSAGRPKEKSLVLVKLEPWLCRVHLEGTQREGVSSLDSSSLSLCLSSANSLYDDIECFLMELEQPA
| Sequence | fitted relative affinity |
| --- | --- |
| CCTTCTCTAACCTCTCTAATAGTGCTA | 1.28 z-score |
| GACGAGTTCGGGTATCGAGACGTGCTA | 0.406 z-score |
| GACGGTTTGGACTTTCGGGACGTGCTA | 3.12 z-score |
| GACGGTTTAGGACTGGGGACGTGCTAG | 0.267 z-score |
| GACGGTATCCTTCTCCTGGCGTGCTAG | 0.846 z-score |
| GACGACATCAGTCTCGAGACGTGCTAG | 0.148 z-score |
| ACGAGTTTCTATTTTCTGAAGTGCTAG | 4.31 z-score |
| GACGGTATCGGTATCGGGAGGTGCTAG | 0.156 z-score |
| GACGAACTGAGTTTCCAGACGTGCTAG | 0.864 z-score |
| GTGAGTCCCGAGAATGGTGTGGTGCTA | -0.218 z-score |
| GACGCACTGAGTTTCGAGACGTGCTAG | 2.23 z-score |
| GACGGACTGCTTATCCTAACGTGCTAG | 0.307 z-score |
| GAACATACTAGTTTCCATTTGTGCTAG | 5.68 z-score |
| TTAGGTTTCCTACTCCTTTAGTGCTAG | 1.82 z-score |
| TTAGGTTTCAGTCTCGATTAGTGCTAG | 1.83 z-score |
| TTAGGACAGGGGTATCGGTTAGTGCTA | -0.513 z-score |
| TTAGGTTTCCGTCTCGGTTAGTGCTAG | 2.11 z-score |
| GACGGTCTCCTTATGCTGACGTGCTAG | 0.613 z-score |

Further values, each from its own experiment
| Substance | target | test | test system | conditions | scale | quantity | value |
| --- | --- | --- | --- | --- | --- | --- | --- |
| PhoQ, residues 284 288 289 292 302 303 AMDMFI | PhoP, residues 12 14 15 18 19 VHSCL (Escherichia coli, UniProt P23836) | Sort-seq, measured: YFP reporter | E. coli | PhoQ-PhoP variant library, together with: 10 µM Mg2+ | reference: high Mg2+ state, higher = stronger signaling | fold induction | 0.575 |

Repeated from above (study 3):
| Change | relative binding score [%] |
| --- | --- |
| Q51A | 31.6 |
| D3S | 25.6 |
| I57N | -8.32 |
| R45E | -4.41 |
| S42M | 6.3 |
| L82P | 9.22 |
| E89M | 9.93 |
| R132C | 45.6 |
| T154K | -8.94 |
